Measurements pooled from the literature.
Each numbered part is a random draw from the data of one study; scales do not carry over between parts.

Block 1 — technique: protein binding microarray; form: double-stranded DNA, one strand shown; matrix: in vitro; tested at: not given; baseline: not given; reading: higher = stronger binding
Target: Histone acetyltransferase KAT6A, both winged helices, GST fusion (KAT6A, Homo sapiens, UniProt Q92794, residues 1-181)
Notes: 8-mer, flanks averaged, mean of 2 arrays, mostly near background
Construct (chain): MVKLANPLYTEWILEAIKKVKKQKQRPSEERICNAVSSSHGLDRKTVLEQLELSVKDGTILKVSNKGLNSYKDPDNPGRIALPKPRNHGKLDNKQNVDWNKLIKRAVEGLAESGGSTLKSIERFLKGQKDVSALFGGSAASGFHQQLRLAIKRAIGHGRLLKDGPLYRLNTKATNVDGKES
| Oligonucleotide | E-score |
| --- | --- |
| CTGCGTTC | 0.0306 |
| CCCAAGTC | -0.115 |
| GCAGCTCC | -0.0628 |
| ACGGTGAG | 0.0454 |
| GCGCTTCA | 0.229 |
| AGGCGTTG | 0.0774 |
| GCCTCAGC | -0.0201 |
| ATTCTCGC | -0.105 |
| ACGAGGAC | -0.0377 |
| GAGCAGGA | -0.098 |
| TCTATAGA | 0.0278 |
| CCCAGCAA | -0.15 |
| TCTGGCCA | -0.225 |
| AACGGTCC | 0.108 |
| CTCCAAAA | -0.186 |
| GTATACGA | -0.0834 |
| GAGCTGTA | -0.227 |
| AAATCCCC | -0.143 |
| ACAGTGAA | -0.0911 |
| CACAGCCA | -0.111 |
| ATAATCGG | -0.00231 |
| GCGTTGCC | 0.106 |
| GGCAACCC | 0.0778 |
| GGTTATAA | 0.0229 |
| ACATGTCG | 0.0282 |

Block 2 — technique: universal PBM; form: double-stranded DNA, one strand shown; matrix: in vitro; tested at: not given; reading: higher = stronger binding
Target: Sal-like protein 4, full length isoform B (SALL4, Homo sapiens, UniProt Q9UJQ4-2, residues 1-616)
Notes: 8-mer, flanks averaged, mean of replicates
| Oligonucleotide | E-score |
| --- | --- |
| ACGTAAAG | 0.26 |
| ACGCACAG | -0.107 |
| TTCTACAA | 0.173 |
| AGTATCGC | 0.0386 |
| ATGACTTC | 0.156 |
| ACTTTTGG | 0.058 |
| AGACAGGC | -0.193 |
| CCAACAGC | -0.194 |
| AGATCATC | 0.0756 |
| CCCCTTCC | -0.244 |
| ATCGCTGG | -0.157 |
| AGATCTGC | -0.0681 |
| GCCACATA | 0.0231 |
| ACAAAGAT | 0.252 |
| AATAGGTC | 0.112 |
| AACACACT | 0.0806 |
| AAATGCAC | 0.0871 |
| ACAACGTC | -0.0869 |
| CGTAAACG | -0.15 |
| ACGTTAGC | 0.0243 |
| CGACCTTA | 0.0642 |
| CACCGAAC | -0.138 |
| CTGCTTTC | -0.108 |
| CGGCCCCC | -0.289 |
| CATTGGTC | -0.0402 |

Block 3 — technique: protein-binding microarray; form: double-stranded DNA, one strand shown; matrix: in vitro; tested at: not given; reading: higher = stronger binding
Target: TATA-box-binding protein 1 (TBP1, Arabidopsis thaliana, UniProt P28147, residues 1-200, full length assumed)
Notes: k-mer, scored over probes, only values ≥0.25
Construct (chain): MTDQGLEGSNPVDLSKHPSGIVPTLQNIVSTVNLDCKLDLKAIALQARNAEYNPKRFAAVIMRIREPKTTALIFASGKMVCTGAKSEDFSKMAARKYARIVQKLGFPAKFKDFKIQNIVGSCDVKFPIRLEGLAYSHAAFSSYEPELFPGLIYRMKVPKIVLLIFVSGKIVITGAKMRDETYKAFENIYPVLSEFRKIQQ
| Oligonucleotide | E-score |
| --- | --- |
| TACTTAA | 0.391 |
| AAATATG | 0.33 |
| CTAAAAA | 0.281 |
| ATATATG | 0.462 |
| ATAATAG | 0.364 |
| GTAAATA | 0.362 |
| GCATTTA | 0.302 |
| TCTTAAA | 0.333 |
| ATTAATC | 0.35 |
| ACTTTTA | 0.349 |
| CCTATAA | 0.347 |
| CCTATTA | 0.258 |
| TATTTCA | 0.298 |
| ATACGAT | 0.271 |
| ACTATAT | 0.425 |
| CGTTTAA | 0.291 |
| GGATAAA | 0.291 |
| ATATAAT | 0.462 |
| AATACTA | 0.255 |
| AAATTTA | 0.381 |
| GTCTATA | 0.338 |
| ATATAAA | 0.488 |

Block 4 — technique: RNA Bind-n-Seq; form: RNA; matrix: in vitro; tested at: 365 nM; baseline: no-protein control; reading: higher = stronger binding
Target: RNA binding protein fox-1 homolog 2, RRM domain, GST-SBP tag (RBFOX2, Homo sapiens, UniProt O43251-10, residues 100-194)
Notes: natural RNA segment, single round, ends assumed
Shared flanks, not repeated: GGGAGUUCUACAGUCCGACGAUC … UGGAAUUCUCGGGUGCCAA
Residues (chain): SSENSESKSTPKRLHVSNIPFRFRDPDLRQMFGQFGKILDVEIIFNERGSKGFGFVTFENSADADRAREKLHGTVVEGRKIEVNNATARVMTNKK
| Oligonucleotide | RBNS enrichment (R) |
| --- | --- |
| UGCUCCUCCACAUCCUGGAGCGUCCCAGCACCUCCCCACCUACUUUUGUUCCCAAUGUCAGCCACCAUGCCUUAGCAGCUGAACAAUCGAGCCUCAUGCUCAUGAAAUCA | 0.772 |
| UAAUUUGUGUUUUUGGAUUUUCUUUCAGAAGUAGUCAAAUGUCUAUGCUGUUACAUCCAGAAUAUUCAUUAGGCUGCCCCACAGCUCUUCUGUAUAUAUAGAGACCACAG | 0.311 |
| CCGUAAUGCUGCAUUACAUGUAGGACUGUGUUUACUAAAGUGUGUAAAUGUUUAUAUAAAUACCAAAUUGCAGCAUCCCCAAAAUGAAUAAAGCCUUUUUACUUGUGGGU | 1.06 |
| UCUCUGGAGCACAACUACAGCAAACCUCCUCAGUGCCUACGGGACUUGCCAGCAGUGGAGCAUGCACAAGUGUCCCAUUACCAGCCCACAUAGAAAUAUCAAACAGUGAA | 2.7 |
| AAAGAGGAAAGCUUACUUGUUUAAUGGCAGCCACAUGCACGAAGAUGCUAAGAAGAAAAAGAAUUCCAAAUCCUCAACUUUUGAGGUUUCGGCUCUCCAAUUUAACUCUU | 1.76 |
| CAAAUAAAUAACCUAUGGCCAAACUUGCACUGUUACGUGUUAACCAAGACAUCCCUUUAGGUGACAAGACUCUAUAACAGUGGUUACCUGUCUCCAUGUUGACACUUCAU | 0.44 |
| GUAGUUUACAGAAAAAGACUUUAAAAGUGAUCUACAUGAGGAACUGUAGAUGAUGUAUUUUUUUCAUCUUUUUUGUUAACUGAUUUGCAAUAAAAAUGAUACUGAUGGUG | 0.746 |
| GUGUGGGGGAGGCAAGGGAAGAGGACGAAAAUGAUGAGAAUGACACUGAGGUCAUUGUUUAGAGCAGAUCUCAAGCAGCCGUUUGGCCACGCCAUAUCCUUUGUGGAGCA | 1.45 |
| AAUACCUUAAAAAUAAUAGAUUGAUGAUUUUCUUUAUUUCCUAGAGAAUUUAUUUUAUAAAUACUUUGUUUACAUUUUAGAUUGUACUUGUCUUUAUUUAAAAUGAUGAA | 0.993 |
| CGCCGCUGUCUCCUCCUCUCCAUCCCGCCCAGCCAUGUGACACCGGCUCUUGUAGAGGGCAUCCCCAGAUGUCCAAACCCUUUCCUGUGUACUGUUGAAAGCAUUGUUCU | 0.482 |
| ACCUGUGUGAUUCAGUAGGGUUUGAGACUUACGUGUGAUACUGACAGGUAAGCAACAGUGCUAGCAUUCUAGAUUCCUGCCUUUUUUUAAAAAGAAAUUAUUCUCAUUGC | 0.377 |
| UAGCCUGUGUUUUAAACCAGCCAUGUUUCCUUGUAUAUUUCCCUACCCGCUGCCCCACAUACCCAGCAUGCCGCUGUGGCCACCAUGUCCUCAAAGCCUUCUGUCUGUAU | 0.46 |

Block 5 — technique: RNA Bind-n-Seq; form: RNA; matrix: in vitro; tested at: 200 nM; notes: whole 134-nt RNA, ends assumed; added: 150 mM KCl; baseline: input library; reading: higher = stronger binding
Target: Ras GTPase-activating protein-binding protein 1, full length (G3BP1, Homo sapiens, UniProt Q13283)
Sequence of UniProt Q13283 (whole entry, looked up): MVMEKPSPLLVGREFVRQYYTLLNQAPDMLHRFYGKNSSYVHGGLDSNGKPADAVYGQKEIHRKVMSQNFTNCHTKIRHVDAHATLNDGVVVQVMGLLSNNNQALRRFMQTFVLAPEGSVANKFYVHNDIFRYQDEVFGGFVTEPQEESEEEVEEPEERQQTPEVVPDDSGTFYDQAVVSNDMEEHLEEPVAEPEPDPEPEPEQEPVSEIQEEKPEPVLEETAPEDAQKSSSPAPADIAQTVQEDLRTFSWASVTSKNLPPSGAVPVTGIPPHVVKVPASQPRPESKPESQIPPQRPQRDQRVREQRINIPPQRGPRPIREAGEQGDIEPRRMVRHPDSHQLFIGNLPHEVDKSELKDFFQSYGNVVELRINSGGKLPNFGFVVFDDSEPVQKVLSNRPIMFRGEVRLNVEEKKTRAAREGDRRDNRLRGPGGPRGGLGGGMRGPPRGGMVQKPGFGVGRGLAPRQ
Shared flanks, not repeated: GGGAGUUCUACAGUCCGACGAUC … UGGAAUUCUCGGGUGUCAAGG
| Oligonucleotide | log2 enrichment |
| --- | --- |
| GUCCUGUGCUACACAUCGUAUGUACCGAAUCGGGGAAAAAGGAAAAAGGGAAAAAGGGGAAAGUAUUAUGUUACGCCGUUCGGAUCUGCA | -0.301 |
| UUCCUCAAGUCCUGUGCUACACAUCGUAUGUACCGAAUCGGUGGAGGAGGAAAGUAUUAUGUUACGCCGUUCGGAUCUGCACUUCCAGCA | -0.987 |
| AGUCCUGUGCUACACAUCGUAUGUACCGAAUCGGGAAAGGGAAAAAAAGGGUUUGGGAAAGUAUUAUGUUACGCCGUUCGGAUCUGCACU | -0.226 |
| UAACUUUAGAGGAGGAUCUGAUGGAUAUGUCAGUGGACGUGGAUUUGGGGAUGGCUAUAAUGGGUAUGGAGGAGGACCUGGAGGUGGCAA | 0.399 |
| UGCUGGAGAUGCAAUAUAUGAGGUGGUGAGUCUACAGCGAGAGUCUGACAAGGAGGAACCAGUCACUCCUACUAGUGGAGGGGGUCCAAU | -1.81 |
| GUCCUGUGCUACACAUCGUAUGUACCGAAUCGGGUUUUUGGGAAAAAGGGUUUUUGGGAAAGUAUUAUGUUACGCCGUUCGGAUCUGCAC | -0.591 |
| CAAGUCCUGUGCUACACAUCGUAUGUACCGAAUCGGGGCCGGGCCGGGGCCGGGGAAAGUAUUAUGUUACGCCGUUCGGAUCUGCACUUC | 0.0325 |
| UGUGCUACACAUCGUAUGUACCGAAUCGGGGUUUUUUUGGGGUUUUUGGGGUUUUUUUGGGGAAAGUAUUAUGUUACGCCGUUCGGAUCU | -0.495 |
| CUCAAGUCCUGUGCUACACAUCGUAUGUACCGAAUCGGGGAGGGGAGGGAGGGGAAAGUAUUAUGUUACGCCGUUCGGAUCUGCACUUCC | 1.43 |
| UCCUGUGCUACACAUCGUAUGUACCGAAUCGGUUUUUUGGGGUUUUUUGGGUUUUUUGGGAAAGUAUUAUGUUACGCCGUUCGGAUCUGC | -0.335 |
| UAACUUUAGAGGAGGAUCUGAUGGAUAUGGCAGUGGACGUGGAUUUGGGGAUGGCUAUAAUGGGUAUGGAGGAGGACCUGGAGGUGGUAA | 0.211 |
| AGUCCUGUGCUACACAUCGUAUGUACCGAAUCAAACCCCCCCAAACCCAAACCCAAAAAAGUAUUAUGUUACGCCGUUCGGAUCUGCACU | -0.389 |
| AGUCCUGUGCUACACAUCGUAUGUACCGAAUCGGAAAAAAAGGAAAAAGGAAAAAGGAAAGUAUUAUGUUACGCCGUUCGGAUCUGCACU | -1.35 |
| CAAGUCCUGUGCUACACAUCGUAUGUACCGAAUCGGUUUGGUUUGGGGUUUGGGGAAAGUAUUAUGUUACGCCGUUCGGAUCUGCACUUC | -0.325 |

Some of these lines once more (block 2):
| Oligonucleotide | E-score |
| --- | --- |
| ATCGCTGG | -0.157 |
| AGATCTGC | -0.0681 |
| GCCACATA | 0.0231 |
| ACAAAGAT | 0.252 |
| AATAGGTC | 0.112 |
| AACACACT | 0.0806 |
| AAATGCAC | 0.0871 |
| ACAACGTC | -0.0869 |
| CGTAAACG | -0.15 |
| ACGTTAGC | 0.0243 |
| CGACCTTA | 0.0642 |
